Published values from different studies.
Protocols differ between the studies behind these lines. ± gives the spread as reported. In brackets after ≈: the same amount, converted by molar mass.

Compound | test | system | conditions | how to read | endpoint | result
O=C(O)[C@@H]1C[C@@H](O)CN1C(=O)[C@@H]1CCCN1 | potentiometric titration |  | 37 °C, with: Fe(III) |  | log beta | 7.79
COc1cc(C)c(Cc2ccc(O)cc2)cc1[C@@H]1S[C@H](CO)[C@@H](O)[C@H](O)[C@H]1O |  | Japanese T2DM patients, plasma | 0.5 mg luseogliflozin, day 7, once daily |  | AUC(0-τ) | 22.8 ± 3.03 ng·h/mL
CC[C@H](C)[C@H](NC(=O)[C@H](CCC(=O)O)NC(=O)[C@H](CC(C)C)NC(=O)[C@H](CC(=O)O)NC(=O)[C@H](CC(=O)O)NC(=O)[C@@H]1CCCN1C(=O)[C@H](CCCNC(=N)N)NC(=O)[C@@H]1CCCN1C(=O)[C@@H](N)CCCNC(=N)N)C(=O)O |  | carbonate buffer | 5 d, pH 10, 37 °C |  | backbone amide stability | stable
CCCC[C@H](NC(=O)CNC(=O)CNC(=O)CN1CCN(CC(=O)O)CCN(CC(=O)O)CC1)C(=O)N[C@H]1CC(=O)NCCCC[C@@H](C(N)=O)NC(=O)[C@H](Cc2c[nH]c3ccccc23)NC(=O)[C@H](CCCNC(=N)N)NC(=O)[C@@H](Cc2ccccc2)NC(=O)[C@H](Cc2c[nH]cn2)NC1=O [gallium-67 labelled] |  | C57 mice, female, B16/F1 melanoma, urine | intravenous, 0.037 MBq, 2 h |  | urinary excretion | 84 ± 5.71%
CC(=O)N([O-])CCCCCNC(=O)CCC(=O)N([O-])CCCCCNC(=O)CCC(=O)N([O-])CCCCCN.[89Zr+4] | radio-iTLC | aqueous buffer | 1 h, pH 7.5, 37 °C, EDTA challenge, with: 100-fold excess EDTA |  | intact complex | 96.6 ± 0.3%
O=C(NCC1CO1)Oc1ccc([N+](=O)[O-])cc1 (racemic) |  |  | 50 µM, pH 9.0, 37 °C, no enzyme |  | non-enzymatic hydrolysis rate | 0.18 ± 0.04 nmol/min
C=C(c1ccc(C(=O)O)c(F)c1)c1cc2c(cc1C)C(C)(C)C=CC2(C)C |  | Sprague-Dawley rat, male | oral, 100 mg/kg, 1 h, sesame oil vehicle |  | blood cholesterol | 124 ± 6.7 mg/dL
[11CH3]c1ccc2nc(C3CCC3)n(-c3ccc4[nH]ncc4c3)c2n1 | extrapolated from mouse biodistribution | human female, total body |  |  | absorbed dose | 3.6 µSv/MBq
O=C(Cc1ccccc1)Nc1nc2ccccc2n1Cc1ccccc1 | ultrafiltration | rat plasma | 30 min, 37 °C |  | fraction unbound | 39.6%
CNC(=O)N[C@]1(C)CCC[C@@]2(C)C3CC[C@@]4(C)C[C@]3(CCC21)CC4=O (single isomer, unassigned) |  | male Sprague-Dawley rat, plasma | oral, 2 mg/kg |  | Vd/F | 83.2 L
O=C([O-])CN1CCN(CC(=O)[O-])CCN(CC(=O)NC[C@H]2CC[C@H](C(=O)N[C@H](Cc3cnc4ccccc4c3)C(=O)NCCCC[C@H](NC(=O)N[C@@H](CCC(=O)O)C(=O)O)C(=O)O)CC2)CCN(CC(=O)[O-])CC1.[64Cu+2] | PET/CT, OLINDA/EXM dosimetry | healthy human volunteers, osteogenic cells |  |  | absorbed dose | 0.0108 mGy/MBq
CSCOC1C(=O)C2(C)C(OCSC)CC3OCC3(OC(C)=O)C2C(OC(=O)c2ccccc2)C2(O)CC(OC(=O)C(O)C(C=C(C)C)NC(=O)OC(C)(C)C)C(C)=C1C2(C)C (stereo not drawn) |  | female Sprague-Dawley rat, plasma | intravenous, 4 mg/kg |  | Vd | 41.7 L/kg
Cc1ccc(OCC(=O)N(Cc2cccs2)c2ccn[nH]2)cc1 |  | beagle dog, male, plasma | oral gavage, 100 mg/kg |  | Tmax | 1.67 h
O=C(O)C1OC(OC2C(COS(=O)(=O)O)OC(OC3C(C(=O)O)OC(OC4C(COS(=O)(=O)O)OC(OC5C(C(=O)O)OC(OC6C(COS(=O)(=O)O)OC(OC7C(C(=O)O)OC(OC8C(COS(=O)(=O)O)OC(OC9C(C(=O)O)OC(OC%10C(COS(=O)(=O)O)OC(OC%11C(C(=O)O)OC(Oc%12ccc([N+](=O)[O-])cc%12)C(O)C%11O)C(NS(=O)(=O)O)C%10O)C(OS(=O)(=O)O)C9O)C(NS(=O)(=O)O)C8O)C(OS(=O)(=O)O)C7O)C(NS(=O)(=O)O)C6O)C(OS(=O)(=O)O)C5O)C(NS(=O)(=O)O)C4O)C(OS(=O)(=O)O)C3O)C(NS(=O)(=O)O)C2OS(=O)(=O)O)C(O)C(O)C1OC1OC(COS(=O)(=O)O)C(O)C(O)C1NS(=O)(=O)O (stereo not drawn) |  | rats, serum | intravenous, 3600 µg/kg/day for 7 days, day 8 |  | creatinine | 0.42 ± 0.03 mg/dL
COC[C@@H](CC(C)C)NC(=O)c1ccc(CO)c(C)c1 | LC-MS | human liver microsomes | 10 µM of parent drug, 20 min, pH 7.4, with: NADPH | reference: parent drug at time zero | metabolite peak area | 3.6%
CC(C)c1cnc(-c2cc(Cl)ccc2F)cc1Nc1ccncc1C(=O)NC(CO)CO | monotherapy, item: headache | human patients | oral, dose not given, grade 3, phase I A |  | patients with treatment-related adverse event | 0%
CN(C)c1ccc(-c2nc3ccc(OCCCCCN4CCN5CCN(CC4)CC(=O)[O][Al]([18F])[O]C(=O)C5)cc3s2)cc1 |  | ICR mouse | intravenous, dose not given, 2 min |  | intestine uptake | 5.6 ± 1.41 % injected dose/organ

Compound | test | system | conditions | how to read | endpoint | result
CC(C)(Sc1cc[n+]([O-])cc1-c1ccc(C#N)c2ccccc12)C(=O)OC1OC(C(=O)O)C(O)C(O)C1O (stereo not drawn) |  | urine | oral, 15 mg, severe renal impairment | reference: normal renal function | fraction excreted unchanged | ~33%
O=C([O-])CN(CCN(CC(=O)[O-])Cc1cc(CCC(=O)NCCCCCC(=O)NCCCC[C@H](NC(=O)N[C@@H](CCC(=O)O)C(=O)O)C(=O)O)ccc1O)Cc1cc(CCC(=O)O)ccc1[O-].[68Ga+3] | PET/CT | prostate cancer patients, gluteal muscle | 60 min post-injection |  | SUVmean | 0.44 ± 0.1
CCC/C(=C\C1=C(OC)C(=O)c2ccccc2C1=O)C(=O)NOC |  | FaSSGF | 24 h, 37 °C |  | thermodynamic solubility | 510 µg/mL (≈ 1550 µM)
CNC(=O)C1CCN(c2ccccc2NC(=O)c2ccc(-c3cc(O)ccc3C)c(C)c2)CC1 | metabolic stability | mouse, liver microsomes | 2 µM |  | half-life | < 0.167 h
CC/C=C\C/C=C\C/C=C\C/C=C\C/C=C\CCCCOC(CC)C(=O)O (stereo not drawn) | radioactivity, 14C-labelled | Wistar rat, male, kidney cortex | oral, 100 mg/kg, 1 day |  | tissue concentration | 9.8 µg equivalents/g tissue
Cn1cc(C(=O)N[C@@H]2CCc3cc(C(=O)O)ccc32)cn1 |  | human, pooled urine | oral, 20 mg | reference: dose | radioactive dose excreted in urine | 0.177%
CN1CC[C@H](c2c(O)cc(O)c3c(=O)cc(/C=C/c4c(Cl)cccc4Cl)oc23)[C@H](O)C1 | dissolution, USP paddle apparatus | water, 0.25% SLS | concentration not given, sink conditions |  | AUC(0-t) | 87400 ± 5840 ng·h/mL
CC(C)[C@H](NC(=O)CNC(=O)[C@H](CCC(N)=O)NC(=O)[C@H](C)N)C(=O)O |  | human | 30 mg/kg single dose, LOQ 0.5 ng/mL |  | time to concentration below LOQ | 120 min
COC(=O)c1ccc(CCc2cc3cc4nc(c(OC)c5[nH]c(cc6nc(cc2[nH]3)CC6(C)C)cc5CCCNC(=O)OC(C)(C)C)C(=O)C4(C)C)cc1 |  | DMF | room temperature |  | Qy/B absorption intensity ratio | 0.41
Cc1ccc(/N=N/c2c(O)ccc3ccccc23)c(C)c1 |  | rat whole blood QC samples | 16.0 µg/L, 4 h, room temperature, short-term stability |  | measured concentration | 16 µg/L
CCCC[C@H](NC(=O)CN1CCC(NC(=O)CN2CCN(CC(=O)O)CCN(CC(=O)O)CCN(CC(=O)O)CC2)CC1)C(=O)N[C@H]1CC(=O)NCCCC[C@@H](C(N)=O)NC(=O)[C@H](Cc2c[nH]c3ccccc23)NC(=O)[C@H](CCCNC(=N)N)NC(=O)[C@@H](Cc2ccccc2)NC(=O)[C@H](Cc2c[nH]cn2)NC1=O [gallium-68 labelled] | radio-HPLC | mouse, plasma | intravenous, 8 to 12 MBq, 15 min post injection |  | intact compound | > 93%
Cn1cc(-c2cc(N3CCCS3(=O)=O)ccc2N[C@H]2CC[C@H](C)CC2)c2cc[nH]c2c1=O |  | Sprague-Dawley rat, plasma | oral vs intravenous, 3 mg/kg oral, 1 mg/kg i.v. |  | oral bioavailability | 12.7%
COC(=O)/C=C/C(=O)c1ccc(OC)cc1 | LC-MS/MS | rat plasma | 400 ng/mL, 15 days, -70 °C, long-term storage |  | recovery | 97.5 ± 9.13%
C[Si]1(C)CNC(=O)c2ccccc21 |  | Sprague-Dawley rat, male | 5 mg/kg oral, 1 mg/kg intravenous |  | oral bioavailability | 111 ± 25%
N=C(N)NCCC[C@@H]1NC(=O)[C@H](Cc2c[nH]c3ccccc23)NC(=O)[C@@H](CC2CCCCC2)NC(=O)[C@@H]2CCCN2C(=O)[C@@H](NC(=O)CCc2ccccc2)CCCNC1=O |  | C57BL/6J mouse, plasma | intraperitoneal, 1 mg/kg, single dose | reference: intravenous AUC | bioavailability | 60.3%
Cn1cc(C(N)=O)c(NC2C3CC4CC2CC(O)(C4)C3)c2ccnc1-2 (stereo not drawn) |  | Japanese adults, mild hepatic impairment, plasma | oral, 150 mg single dose |  | AUC(0-t) | 563 ng·h/mL

Excerpt of the above:
Compound | test | system | conditions | how to read | endpoint | result
Cn1cc(C(=O)N[C@@H]2CCc3cc(C(=O)O)ccc32)cn1 |  | human, pooled urine | oral, 20 mg | reference: dose | radioactive dose excreted in urine | 0.177%
CCCC[C@H](NC(=O)CN1CCC(NC(=O)CN2CCN(CC(=O)O)CCN(CC(=O)O)CCN(CC(=O)O)CC2)CC1)C(=O)N[C@H]1CC(=O)NCCCC[C@@H](C(N)=O)NC(=O)[C@H](Cc2c[nH]c3ccccc23)NC(=O)[C@H](CCCNC(=N)N)NC(=O)[C@@H](Cc2ccccc2)NC(=O)[C@H](Cc2c[nH]cn2)NC1=O [gallium-68 labelled] | radio-HPLC | mouse, plasma | intravenous, 8 to 12 MBq, 15 min post injection |  | intact compound | > 93%
